# Measured values collected from several papers.
# A part holds a random share of what one study measured.
# Sequence of UniProt P14921 (whole entry, unmodified, looked up): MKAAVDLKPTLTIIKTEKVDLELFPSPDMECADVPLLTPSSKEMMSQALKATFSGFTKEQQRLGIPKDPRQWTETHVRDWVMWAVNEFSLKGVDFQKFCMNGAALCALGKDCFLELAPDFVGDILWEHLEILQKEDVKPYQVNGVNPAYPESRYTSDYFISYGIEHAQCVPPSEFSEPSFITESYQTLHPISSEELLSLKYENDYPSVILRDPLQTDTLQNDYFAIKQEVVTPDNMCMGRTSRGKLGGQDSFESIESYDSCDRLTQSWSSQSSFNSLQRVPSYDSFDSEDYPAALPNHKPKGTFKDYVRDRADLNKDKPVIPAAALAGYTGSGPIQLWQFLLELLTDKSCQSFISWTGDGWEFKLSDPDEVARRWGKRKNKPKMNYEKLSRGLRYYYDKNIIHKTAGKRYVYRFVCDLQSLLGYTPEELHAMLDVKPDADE

# Block 1
# Target: Interferon regulatory factor 5, full length, phosphomimetic (IRF5, Homo sapiens, UniProt Q13568-2, residues 1-514, K96S/S451D/S453D/S456D/S462D)
# Method: protein-binding microarray
# Form: double-stranded DNA, one strand shown
# Matrix: in vitro
# Tested at: 250 nM
# Setting: 60-bp whole probe
# With: salmon DNA 0.4 mg/ml
# Relative to: random background probes
# Reading: higher = stronger binding
Sequence,log fluorescence
GCCTAGCACCTCTGTCTAAAATTGTTAAAGTGCTAGGTCTTGATTCGCTTGACGCTGCTG,0.255 z-score
GCCTAGCACGACGGTACCGGTCTCGGGACGTGCTAGGTCTTGATTCGCTTGACGCTGCTG,0.00039 z-score
GCCTAGCACAGTTGTTTTAAATTCTAATTGTGCTAGGTCTTGATTCGCTTGACGCTGCTG,1.02 z-score

# Block 2
# Target: Sal-like protein 4, full length isoform B (SALL4, Homo sapiens, UniProt Q9UJQ4-2, residues 1-616)
# Method: universal PBM
# Form: double-stranded DNA, one strand shown
# Matrix: in vitro
# Tested at: not given
# Setting: 8-mer, flanks averaged, mean of replicates
# Reading: higher = stronger binding
Sequence,E-score
ACTGCAGT,-0.0746
CACCGGGC,-0.367
TACTTCCA,0.104
ATGCTTTA,0.138

# Single results of other studies
Molecule,target,test,system,conditions,how to read,endpoint,value
"PhoQ, residues 284 288 289 292 302 303 GNNTDL","PhoP, residues 12 14 15 18 19 NMSFL (Escherichia coli, UniProt P23836)","Sort-seq, refers to: YFP reporter",E. coli,"PhoQ-PhoP variant library, with: 10 µM Mg2+","relative to: high Mg2+ state, higher = stronger signaling",fold induction,3.27
TACCACAA,"Protein C-ets-1 (ETS1, Homo sapiens, UniProt P14921, residues 1-441, K379A, full length assumed)",protein-binding microarray,"double-stranded DNA, one strand shown, in vitro","not given, k-mer, scored over probes, only values ≥0.25",higher = stronger binding,E-score,0.329

# Excerpt of the above (block 1):
Sequence,log fluorescence
GCCTAGCACAGTTGTTTTAAATTCTAATTGTGCTAGGTCTTGATTCGCTTGACGCTGCTG,1.02 z-score
